Results of several laboratories.
± gives the spread as reported. In brackets after ≈: the same amount, converted by molar mass.

Sequences of proteins named here, by UniProt entry; tags and fusion partners are left off.
UniProt Q12866, whole entry, looked up: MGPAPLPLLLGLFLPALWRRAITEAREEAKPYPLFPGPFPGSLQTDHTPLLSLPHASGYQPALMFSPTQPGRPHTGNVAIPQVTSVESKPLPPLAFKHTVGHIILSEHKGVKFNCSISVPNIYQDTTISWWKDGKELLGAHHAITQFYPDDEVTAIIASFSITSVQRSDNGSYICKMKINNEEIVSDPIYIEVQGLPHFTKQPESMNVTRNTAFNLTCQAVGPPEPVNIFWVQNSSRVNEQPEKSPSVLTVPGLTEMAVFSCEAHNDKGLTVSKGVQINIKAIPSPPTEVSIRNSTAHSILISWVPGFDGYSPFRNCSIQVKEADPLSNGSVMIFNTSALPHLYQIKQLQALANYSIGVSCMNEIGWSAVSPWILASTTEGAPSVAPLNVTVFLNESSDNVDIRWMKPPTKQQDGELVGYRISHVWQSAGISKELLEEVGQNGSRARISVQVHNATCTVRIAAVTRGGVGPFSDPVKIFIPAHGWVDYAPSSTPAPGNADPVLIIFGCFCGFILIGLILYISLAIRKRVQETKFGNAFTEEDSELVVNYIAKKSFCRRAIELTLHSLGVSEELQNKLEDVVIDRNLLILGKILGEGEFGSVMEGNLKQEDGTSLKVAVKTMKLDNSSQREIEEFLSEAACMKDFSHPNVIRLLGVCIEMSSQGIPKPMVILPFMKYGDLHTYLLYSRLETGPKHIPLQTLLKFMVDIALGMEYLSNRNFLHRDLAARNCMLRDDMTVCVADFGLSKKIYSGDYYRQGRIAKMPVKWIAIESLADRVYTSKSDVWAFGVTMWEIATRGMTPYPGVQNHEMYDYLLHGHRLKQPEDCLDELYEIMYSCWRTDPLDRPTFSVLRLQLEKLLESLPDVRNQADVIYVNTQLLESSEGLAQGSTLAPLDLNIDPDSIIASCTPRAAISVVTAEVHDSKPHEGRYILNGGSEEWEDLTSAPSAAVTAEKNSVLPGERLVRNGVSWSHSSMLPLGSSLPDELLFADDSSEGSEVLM
UniProt P13945, whole entry: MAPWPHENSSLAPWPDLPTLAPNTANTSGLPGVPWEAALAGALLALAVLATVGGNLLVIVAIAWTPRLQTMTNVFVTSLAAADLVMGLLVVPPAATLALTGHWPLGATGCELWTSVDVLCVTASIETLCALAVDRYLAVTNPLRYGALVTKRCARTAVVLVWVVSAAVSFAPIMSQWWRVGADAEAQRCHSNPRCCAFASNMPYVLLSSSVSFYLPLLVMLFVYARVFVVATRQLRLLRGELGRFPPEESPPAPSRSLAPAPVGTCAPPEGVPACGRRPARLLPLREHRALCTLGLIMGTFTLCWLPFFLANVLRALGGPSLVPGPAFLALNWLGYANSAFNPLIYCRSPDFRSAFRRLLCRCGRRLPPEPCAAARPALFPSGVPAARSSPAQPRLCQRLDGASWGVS

Molecule	target or system	test	test system	setting	scale	quantity	result
CCCCCCCCCCCCCCCC(=O)NCCCC[C@H](NC(=O)CNC(=O)[C@H](CO)NC(=O)CNC(=O)[C@@H](NC(=O)[C@H](CO)NC(=O)[C@H](CC(=O)O)NC(=O)[C@H](CC(C)C)NC(=O)[C@@H](NC(=O)[C@H](CCCCN)NC(=O)[C@H](CC(N)=O)NC(=O)[C@H](CO)NC(=O)[C@H](CCCNC(=N)N)NC(=O)[C@H](CCCNC(=N)N)NC(=O)[C@@H](NC(=O)[C@H](Cc1c[nH]c2ccccc12)NC(=O)[C@H](CCC(=O)O)NC(=O)[C@H](CCCCN)NC(=O)[C@H](CO)NC(=O)[C@H](CCC(=O)O)NC(=O)[C@H](CCC(=O)O)NC(=O)[C@H](CC(C)C)NC(=O)[C@H](CC(=O)O)NC(=O)[C@H](CO)NC(=O)[C@H](CCCCN)NC(=O)[C@@H](NC(=O)[C@H](CCCCN)NC(=O)[C@H](CC(N)=O)NC(=O)[C@H](CC(C)C)NC(=O)[C@@H](NC(=O)[C@@H](NC(=O)[C@H](CO)NC(=O)[C@@H](NC(=O)[C@H](CC(=O)O)NC(=O)[C@@H](NC(=O)[C@@H]1CCCN1C(=O)[C@H](CC(=O)O)NC(=O)[C@H](CC(C)C)NC(=O)[C@H](C)NC(=O)[C@@H](N)C(C)C)[C@@H](C)CC)[C@@H](C)CC)[C@@H](C)CC)C(C)C)[C@@H](C)CC)[C@@H](C)CC)[C@@H](C)CC)[C@@H](C)CC)C(=O)O			PBS			solubility	2.19 ± 0.4 mg/mL (≈ 464 µM)
CCN1CCN(Cc2ccc(NC(=O)c3ccc(C)c(/C=C/c4cnc5[nH]ccc5c4OC)c3)cc2C(F)(F)F)CC1	FCHSD1-BRAF fusion	kinase-CDC37 interaction, cell-based kinome screen		5 µM	reference: vehicle	log2 fold change	0.051
C=C(C)[C@@H]1[C@H]2OC(=O)[C@@H]1[C@]1(O)C[C@H]3O[C@]34C(=O)O[C@H]2[C@]14C		LC-MS	mouse plasma			time to disappearance	180 min
CCCCCCC1c2ccc(O)cc2Oc2cc(O)ccc21	Acinetobacter baumannii		ATCC 9955	with: PMBN 25 µg/mL		MIC	7.5 mg/L (≈ 25.1 µM)
N#Cc1c(-c2ccc(-c3no[n+]([O-])c3C#N)s2)no[n+]1[O-]			octanol/buffer			logD	2.92
CC#C/C(=N\OC[C@H]1COCCN1)c1ccc2ncnc(Nc3ccc(OCc4cccc(F)c4)c(Cl)c3)c2c1	MERTK (Homo sapiens, UniProt Q12866)	kinase activity		10 µM		inhibition	9.2%
CCCN1CCN(c2ccc3c(c2)C2CC3CCN2C(=O)OCc2ccccc2)CC1 (stereo not shown)	ADRB3 (Homo sapiens, UniProt P13945)	binding, radioligand binding				Ki	> 10 µM
CC[C@H](C)[C@@H]([C@@H](CC(=O)N1CCC[C@H]1[C@H](OC)[C@@H](C)C(=O)NCCc1ccc(OP(=O)([O-])[O-])cc1)OC)N(C)C(=O)[C@@H](NC(=O)[C@H](C(C)C)N(C)C)C(C)C.[Li+].[Li+]			distilled water	23 °C		solubility	> 65 mg/mL
cisplatin						logP	-2.19
CO[C@]12CC[C@@]3(C[C@@H]1[C@](C)(O)C(C)(C)C)[C@H]1Cc4ccc(O)c5c4[C@@]3(CCN1)[C@H]2O5			Swiss-Webster mouse	subcutaneous, 1 mg/kg		onset of sedation	15 min
Cc1cc(N(CCOS(C)(=O)=O)CCOS(C)(=O)=O)ccc1C(=O)O			mouse	intravenous, 20 mg/kg of bendamustine		renal clearance	0.22 mL/min
COC(=O)[C@@]12OC[C@]34[C@H]([C@@H](O)[C@@H]1O)[C@@]1(C)CC(=O)C(OC(=O)CNC(=O)OC(C)(C)C)=C(C)[C@@H]1C[C@H]3OC(=O)[C@H](OC(=O)C=C(C)C)[C@@H]24			NOD/SCID mouse, male	intraperitoneal, 5 mg/kg every other day, 24 days		survival	50%
C[C@H](Cc1ccc(O)c(O)c1)[C@@H](C)Cc1ccc(O)c(O)c1			SKH-1 hairless mice	topical, 3%		toxicity	not toxic

For quick reference, copied from above:
Molecule	target or system	test	test system	setting	scale	quantity	result
CC#C/C(=N\OC[C@H]1COCCN1)c1ccc2ncnc(Nc3ccc(OCc4cccc(F)c4)c(Cl)c3)c2c1	MERTK (Homo sapiens, UniProt Q12866)	kinase activity		10 µM		inhibition	9.2%
